Measured values of several laboratories.
Numbered parts are unrelated; each lists some results of a single study.

Set 1
Target: Interferon regulatory factor 7, full length, phosphomimetic (IRF7, Homo sapiens, UniProt Q92985, residues 1-503, S471D/S472D/S475D/S476D/S477D/S483D/S484D/S487D)
Method: protein-binding microarray
Molecule type: double-stranded DNA, one strand shown
Matrix: in vitro
Concentration: 2200 nM top
Setting: 60-bp whole probe
Added: salmon DNA 0.4 mg/ml
Baseline: random background probes
Direction: higher = stronger binding
Quantity: fitted relative affinity
Target sequence (chain): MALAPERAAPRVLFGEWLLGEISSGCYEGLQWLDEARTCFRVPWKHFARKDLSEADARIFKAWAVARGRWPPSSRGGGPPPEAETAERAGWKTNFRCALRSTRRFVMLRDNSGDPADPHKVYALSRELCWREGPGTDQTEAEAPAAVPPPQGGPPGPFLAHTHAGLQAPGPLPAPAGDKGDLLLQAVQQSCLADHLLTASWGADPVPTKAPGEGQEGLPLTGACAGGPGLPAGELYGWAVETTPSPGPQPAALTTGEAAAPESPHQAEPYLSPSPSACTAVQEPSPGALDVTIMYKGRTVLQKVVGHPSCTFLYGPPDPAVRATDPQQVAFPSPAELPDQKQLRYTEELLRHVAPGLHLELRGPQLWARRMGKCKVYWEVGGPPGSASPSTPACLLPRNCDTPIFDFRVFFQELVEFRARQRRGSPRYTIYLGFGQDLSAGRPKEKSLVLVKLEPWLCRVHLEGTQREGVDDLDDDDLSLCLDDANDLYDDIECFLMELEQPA
Sequence = GCCTAGCACCAGAAGCCAGAGAGGACAGGGTGCTAGGTCTTGATTCGCTTGACGCTGCTG; result = -0.899 z-score
Sequence = GCCTAGCACGACGAACTGAGACTGGAAACGTGCTAGGTCTTGATTCGCTTGACGCTGCTG; result = -0.154 z-score
Sequence = GCCTAGCACGACGGTATCGGGACTGGGGGCGTGCTAGTCTTGATTCGCTTGACGCTGCTG; result = 0.0141 z-score
Sequence = GCCTAGCACTCACAACTCTGTTTTCGACTGTGCTAGGTCTTGATTCGCTTGACGCTGCTG; result = 2.7 z-score

Set 2
Target: RNA binding protein fox-1 homolog 2, RRM domain, GST-SBP tag (RBFOX2, Homo sapiens, UniProt O43251-10, residues 100-194)
Method: RNA Bind-n-Seq
Molecule type: RNA
Matrix: in vitro
Concentration: 365 nM
Setting: natural RNA segment, single round, ends assumed
Baseline: no-protein control
Direction: higher = stronger binding
Quantity: RBNS enrichment (R)
Sequence = GGGAGUUCUACAGUCCGACGAUCGAGUUUGUUCAUUUAUUCUCUCUGUAAAACAAGCUGUGCUUUUUUUCUUCUGCCUUUAAAAUGCCACCCGUGUAUUCAAACCAUGGCCACUUGAUACUUAUGUAGAAUCCUGGAAUUCUCGGGUGCCAA; result = 0.52
Sequence = GGGAGUUCUACAGUCCGACGAUCUCAAGGUUGAAUUAAAAUGCCUGUGAACUGCAAACUUGCUUAUGAUUGACUUGGUGCAAUAAAGUUCCUUUCUAACCAUUUCUGGUUUAGAAAACAUUCAGCCAUCCUAGUGGAAUUCUCGGGUGCCAA; result = 5.06
Sequence = GGGAGUUCUACAGUCCGACGAUCAUUUUCAAAGAAAGUAAUGUUGUUAAAUGGGGCGAAAUAAGAAGUUAAAUUUGAAAGUGAAUGUGUUCAAAUGAAAGGUUUGAUAAUUGCAUCUGUUACUACUUAGUUUCUGGAAUUCUCGGGUGCCAA; result = 2.82

Set 3
Target: Sal-like protein 4, full length isoform B (SALL4, Homo sapiens, UniProt Q9UJQ4-2, residues 1-616)
Method: universal PBM
Molecule type: double-stranded DNA, one strand shown
Matrix: in vitro
Concentration: not given
Setting: 8-mer, flanks averaged, mean of replicates
Direction: higher = stronger binding
Quantity: E-score
Construct (chain): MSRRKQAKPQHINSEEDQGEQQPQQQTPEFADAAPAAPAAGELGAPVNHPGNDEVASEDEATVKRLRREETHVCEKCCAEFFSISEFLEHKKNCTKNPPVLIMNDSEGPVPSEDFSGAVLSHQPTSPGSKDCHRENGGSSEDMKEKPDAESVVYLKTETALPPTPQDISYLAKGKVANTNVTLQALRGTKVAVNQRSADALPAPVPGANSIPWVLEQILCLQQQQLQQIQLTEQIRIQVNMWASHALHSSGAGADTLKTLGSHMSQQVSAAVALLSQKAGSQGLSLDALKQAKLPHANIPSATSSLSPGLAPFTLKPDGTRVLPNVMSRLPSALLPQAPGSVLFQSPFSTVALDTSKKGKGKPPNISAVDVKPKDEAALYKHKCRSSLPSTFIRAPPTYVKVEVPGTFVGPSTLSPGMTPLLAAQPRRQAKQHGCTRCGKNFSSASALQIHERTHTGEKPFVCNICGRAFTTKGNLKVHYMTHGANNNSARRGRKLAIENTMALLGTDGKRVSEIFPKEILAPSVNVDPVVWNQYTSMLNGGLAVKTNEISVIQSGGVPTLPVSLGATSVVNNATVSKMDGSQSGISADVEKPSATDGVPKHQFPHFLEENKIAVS
Sequence = CTTTGCGC; result = -0.0406
Sequence = GCATACTA; result = 0.0456
Sequence = ACGAGCTG; result = -0.17

Single results of other studies
Substance = PhoQ, residues 284 288 289 292 302 303 SIHMAM; target = PhoP, residues 12 14 15 18 19 NNFVT (Escherichia coli, UniProt P23836); test = Sort-seq, item: YFP reporter; test system = E. coli; conditions = PhoQ-PhoP variant library, added: 10 µM Mg2+; how to read = baseline: high Mg2+ state, higher = stronger signaling; quantity = fold induction; result = 8.54

Some of these lines once more (set 2):
Sequence = GGGAGUUCUACAGUCCGACGAUCUCAAGGUUGAAUUAAAAUGCCUGUGAACUGCAAACUUGCUUAUGAUUGACUUGGUGCAAUAAAGUUCCUUUCUAACCAUUUCUGGUUUAGAAAACAUUCAGCCAUCCUAGUGGAAUUCUCGGGUGCCAA; result = 5.06
